Results of several laboratories.
Each numbered part is a random draw from the data of one study; scales do not carry over between parts. Changes are numbered by the printed parent chain.
Sequence of UniProt P31749 (whole entry, looked up): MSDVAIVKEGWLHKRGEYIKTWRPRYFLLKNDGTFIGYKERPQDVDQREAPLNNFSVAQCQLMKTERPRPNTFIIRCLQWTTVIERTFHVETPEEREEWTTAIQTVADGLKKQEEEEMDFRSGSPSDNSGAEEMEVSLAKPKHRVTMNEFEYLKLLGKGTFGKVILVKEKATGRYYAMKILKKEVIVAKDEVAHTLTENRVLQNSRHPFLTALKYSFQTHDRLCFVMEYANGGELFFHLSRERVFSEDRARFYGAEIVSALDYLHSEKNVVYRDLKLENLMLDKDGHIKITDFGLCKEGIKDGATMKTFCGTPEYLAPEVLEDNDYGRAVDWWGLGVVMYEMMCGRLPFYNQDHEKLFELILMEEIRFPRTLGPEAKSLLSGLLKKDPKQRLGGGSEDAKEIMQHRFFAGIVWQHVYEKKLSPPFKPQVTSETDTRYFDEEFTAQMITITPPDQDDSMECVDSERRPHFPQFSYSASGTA

Sample 1 — target: DBP, bZIP domain (human); method: DHFR protein complementation; medium: yeast; reference: wild-type JUN-FOS pair; direction: higher = stronger binding
Setting: single substitutions, most at no-binding floor
Starting sequence: JUN, bZIP domain (human); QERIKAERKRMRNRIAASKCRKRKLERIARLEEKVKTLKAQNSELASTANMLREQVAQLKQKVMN; partner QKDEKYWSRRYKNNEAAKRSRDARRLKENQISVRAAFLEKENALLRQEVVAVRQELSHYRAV
Variant	binding fitness
E54L	-1.52 natural log
K39C	-1.54 natural log
T48Y	-1.58 natural log
V35M	-1.51 natural log
I28K	-1.47 natural log
Q41A	-1.21 natural log
R30H	-1.51 natural log
S47A	-1.43 natural log

Sample 2 — method: RNA Bind-n-Seq; molecule type: RNA; medium: in vitro; concentration: not given; setting: RNA with constant flanks, ends assumed; reference: input RNA pool; direction: higher = stronger binding
Target: RING finger protein unkempt homolog, zinc fingers 1-6, GST-SBP tag (UNK, Homo sapiens, UniProt Q9C0B0, residues 30-357)
All sequences stand within: GGGAGUUCUACAGUCCGACGAUC … CAACAGAGGAUUGAGCAUCA
Residues (chain): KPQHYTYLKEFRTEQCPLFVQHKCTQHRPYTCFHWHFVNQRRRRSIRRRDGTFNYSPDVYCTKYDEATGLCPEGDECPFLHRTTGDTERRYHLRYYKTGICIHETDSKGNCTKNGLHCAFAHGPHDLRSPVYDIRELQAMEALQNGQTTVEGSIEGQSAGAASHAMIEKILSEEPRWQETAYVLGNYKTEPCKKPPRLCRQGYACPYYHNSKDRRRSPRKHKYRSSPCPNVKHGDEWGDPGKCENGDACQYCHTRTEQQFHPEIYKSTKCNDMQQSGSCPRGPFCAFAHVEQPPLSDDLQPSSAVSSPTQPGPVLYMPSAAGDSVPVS
Oligonucleotide	bound/input enrichment
CCAGUCAGUGGGAGGUAGAAAGGGUGGCAUCUGUAGCCCUCUUCAUACACAUAAGUGGCAUUCCGGUGAAUGUCCCAGCUAAUCACUAGCAUGUCUAGGUAUUGGCUGGGUAGUGGGUAU	0.281 ratio
CACUAAAUGGCAGGCACUUGAAAAUGGGUGGAUUUCCCUUGUCGUUGUCUUUUCUAUUGACCGUUGGGAUUUGGGAGAGAAGAAAGAGGUUUUCGAAACUGAAUCACUACUGAGUUGAAC	0.256 ratio
GAUGAAAUGGGUUUGGGAAAGACACUUCAAACAAUUUCUCUUCUUGGAUACAUGAAACACUACCGAAAUAUUCCUGGUCCUCAUAUGGUUUUGGUUCCCAAGUCUACAUUGCACAACUGG	0.173 ratio
GCAGGAGACUGCGUUGCCCUGCUGCAGUCGUGUGAGCCUGCACUCGAUGCUGCCUUUGUGACCCGCCUGUCUUAGGCGGCAGCAUUGAAGUGGCUACCGGCUUCCCCAGACCUCUCUUCA	0.0609 ratio
CCUGCCUAAGGCAAAGAAAUAUAAGACAAGACUAUGAUAUCAAUGAAUGUGGGUUAAGUAACCGAUUUCCAGCUAAAUUGGUCUAAAAAAGAAUAUUAAGUGUGGACAGACCUAUUUCAA	0.205 ratio
UGUGGCUUUGGUGGGGUCUUAAGUUGUGGGCUGACACACACUGCUGUUGUUCCCCUGGACUCCGUAAAGUGCCGCAUGCAGGUGGACCCUCAGAAGUACAAAGGCAUAUUUAAUGGAUUC	0.106 ratio
CCAGAAUACACCAAAAAAAUAGAAAACCUCUGUGCUAUGGGUUUUGAUAGGAACGCAGUAACCGUGGCCUUGUCUUCAAAAUCAUGGGAUGUAGAGACUGCAACAGAACUGCUUCUGAGU	0.403 ratio
CACAGAGCAGCACCUACCCCCUCCUCCUUUCCACACCUGCAAACUCUUUUACUUGGGCUGAAUAUUCCGUGUAAUUACAUCUCAGCUUUGAGGGCUCCUGUGGCAAAUUCCCGGAUUAAA	0.472 ratio

Sample 3 — method: protein-binding microarray; molecule type: double-stranded DNA, one strand shown; medium: in vitro; concentration: 2540 nM top; setting: 60-bp whole probe; together with: salmon DNA 0.4 mg/ml; reference: random background probes; direction: higher = stronger binding; all sequences stand within: GCCTAGCAC … GTCTTGATTCGCTTGACGCTGCTG
Target: Interferon regulatory factor 3, full length, phosphomimetic (IRF3, Homo sapiens, UniProt Q14653, residues 1-427, S386D/S396D/S398D/S402D/T404D/S405D)
Residues (chain): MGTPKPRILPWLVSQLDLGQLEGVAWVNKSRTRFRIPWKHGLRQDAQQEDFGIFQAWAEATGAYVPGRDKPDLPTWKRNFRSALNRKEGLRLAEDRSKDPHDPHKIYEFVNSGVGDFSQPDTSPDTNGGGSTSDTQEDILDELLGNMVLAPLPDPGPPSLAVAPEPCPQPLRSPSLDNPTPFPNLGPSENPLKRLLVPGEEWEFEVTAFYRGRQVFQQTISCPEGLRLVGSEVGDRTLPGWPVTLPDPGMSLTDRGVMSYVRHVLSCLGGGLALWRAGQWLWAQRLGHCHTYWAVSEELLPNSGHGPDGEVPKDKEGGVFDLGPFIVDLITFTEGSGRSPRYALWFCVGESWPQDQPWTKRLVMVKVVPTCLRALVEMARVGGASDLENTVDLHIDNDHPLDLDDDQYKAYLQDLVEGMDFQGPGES
Oligonucleotide	fitted relative affinity
GACGAACTGGGGTATAGAGACGTGCTA	-0.444 z-score
ACTCATTTTCATTTTGTGTCGTGCTAG	2.85 z-score
GTAGGTTTCCTTCTCCTTTAGTGCTAG	9.89 z-score
TGTCCTTTCACTTTAACTTAGTGCTAG	4.66 z-score
TGAGGTATCCTTTTCCTTTAGTGCTAG	7.92 z-score
GATCCTTCCCCTCTAGGTTCGTGCTAG	2.19 z-score
GACGGTATCGACACTGGGGTCGTGCTA	0.608 z-score
TTTGATATCGGGTTTCGATTAGTGCTA	2.07 z-score

Further values, each from its own experiment
SMILES	target	assay	conditions	how to read	quantity	value
Nc1nccc(-c2c(-c3ccc(F)cc3)ncn2C2CCNCC2)n1	RAC-alpha serine/threonine-protein kinase (AKT1, Homo sapiens, UniProt P31749)	enzyme activity, inhibitor	0.5 µM	reference: control	remaining activity	99.9%

Repeated from above (sample 1):
Variant	binding fitness
S47A	-1.43 natural log
R30H	-1.51 natural log
T48Y	-1.58 natural log
